# Published values collected from several papers.
# Each line is one published result; not all experiments were run side by side. Values joined by “and” are separate records of one study, mostly repeats; a detail may differ. ± gives the spread as reported.
Compound,organism,assay,system,setting,how to read,measurement,result
CN(C)c1ccc(O)c2c1C[C@H]1C[C@H]3[C@H](N(C)C)C(O)=C(C(N)=O)C(=O)[C@@]3(O)C(O)=C1C2=O,Plasmodium falciparum,,HB3,,,IC50,5010 nM
COc1cc(N[C@H](C(=O)c2c[nH]c3ccc(OC(F)(F)F)cc23)c2ccc(Cl)cc2OC)cc(S(C)(=O)=O)c1,dengue virus 2,"viral infection, luciferase reporter virus",,"0.0003 nM, 48 h",,inhibition,2.5%
O=C(NN=Cc1ccc(O)c(Br)c1)c1cccc(Br)c1,Cryptococcus neoformans,,,with: fluconazole,lower = more synergistic,FIC index,0.47
Nc1ncnc2c1ncn2[C@@H]1O[C@@H]2COP(=O)(O)O[C@H]3[C@@H](O)[C@H](n4cnc5c(=O)[nH]cnc54)O[C@@H]3COP(=O)(O)O[C@H]2[C@H]1O,West Nile virus,"RNA sequencing Reactome analysis, item: Axon guidance (R-HSA-422475)",HFF-1,"concentration not given, downregulated pathways, with: West Nile virus infection",baseline: WNV-infected without compound,fold enrichment,2.92
COc1ccccc1N1CCN(Cc2c(NC(C)=O)sc(C)c2C)CC1,Plasmodium falciparum,"parasite growth, SYBR Green",,72 h,baseline: 3D7-E182D over 3D7,EC50 ratio,2.5
Cc1ccccc1C(=O)NN=Cc1ccc(O)c(Br)c1,Cryptococcus neoformans,,,"concentration not given, with: tunicamycin",,MIC in combination,0.25 µg/mL
CCCCCCCCCCCCCCCC(=O)NCCO,Plasmodium falciparum,,HB3,,,IC50,10000 nM
C#Cc1ccc(C=NNC(=O)c2ccc(COC)cc2)c(O)c1,Cryptococcus neoformans,,H99,"unit not given, with: amphotericin B",lower = more synergy,FICI,1.06
CCN1CCN(C(=O)N[C@@H](C(=O)N[C@@H]2C(=O)N3[C@@H]2SC(C)(C)[C@@H]3C(=O)O)c2ccccc2)C(=O)C1=O,Escherichia coli,,ΔtolC JW5503-1,"200 µM, with: 30 µg/mL 2,2'-bipyridyl",,zone of inhibition,24 mm
CCCCN(C)CC#Cc1ccc2[nH]c(C)c(Cl)c(=O)c2c1,Plasmodium falciparum,"parasite growth, SYBR Green",3D7 DHODH E182D,72 h,,EC50,399 ± 29 nM
CC12CC1(C)C(=O)N(c1cc(Cl)cc(Cl)c1)C2=O (stereo not drawn),Botrytis cinerea,lesion diameter,"B05.10, cucumber seedlings","spray, 3 days, 20 °C",,EC95,18.4 µg/mL
CS(=O)(=O)CCCn1c(Cn2c(=O)n(CC(F)(F)F)c3ccncc32)cc2cc(Cl)ccc21,respiratory syncytial virus,RT-qPCR,"hospitalized infants 1-24 months, nasal swab","oral, 1-9 mg/kg daily, day 6, all doses combined",baseline: placebo,LS mean difference vs placebo,-0.25 log10 copies/mL
C#Cc1ccc(O)c(C=NNC(=O)c2ccc(Br)cc2)c1,Cryptococcus neoformans,,H99,"unit not given, with: fluconazole",lower = more synergy,FICI,0.7
Cc1ccc2[nH]c3c(c2c1)CCCC3NCCc1ccc(Br)cc1 (stereo not drawn),Streptococcus pneumoniae,,,"concentration not given, 10% fetal bovine serum",baseline: without serum,MIC fold change,4
CC(=O)NC[C@H]1CN(c2ccc(N3CCOCC3)c(F)c2)C(=O)O1,Streptococcus pneumoniae,,,,,MIC90,1 µg/mL
Cc1cc(Cl)cc(S(C)(=O)=O)c1NC(=O)c1cc(Br)nn1-c1ncccc1Cl,Spodoptera litura,leaf-dip,third instar larvae,"6.25 ppm, 24 h",,mortality,0%
CC[C@H]1OC(=O)[C@H](C)[C@@H](O[C@H]2C[C@@](C)(OC)[C@@H](O)[C@H](C)O2)[C@H](C)[C@@H](O[C@@H]2O[C@H](C)C[C@H](N(C)C)[C@H]2O)[C@](C)(O)C[C@@H](C)CN(C)[C@H](C)[C@@H](O)[C@]1(C)O,Streptococcus pneumoniae,,,,,MIC90,> 32 µg/mL
C#Cc1ccc(C=NNC(=O)c2ccc(Br)cc2Br)c(O)c1,Cryptococcus neoformans,,H99,"unit not given, with: fluconazole",lower = more synergy,FICI,1.12
CN(C)c1nc(NCc2cccc(F)c2)c(/N=N/c2ccc(Cl)cc2)c(N(C)C)n1,Ostrinia furnacalis,leaf dipping,,"500 mg/L, 96 h",,mortality,100%
CN[C@H](CC(C)C)C(=O)N[C@H]1C(=O)N[C@@H](CC(N)=O)C(=O)N[C@H]2C(=O)N[C@H]3C(=O)N[C@H](C(=O)N[C@H](C(=O)O)c4cc(O)cc(O)c4-c4cc3ccc4O)[C@H](O)c3ccc(c(Cl)c3)Oc3cc2cc(c3O[C@@H]2O[C@H](CO)[C@@H](O)[C@H](O)[C@H]2O[C@H]2C[C@](C)(N)[C@H](O)[C@H](C)O2)Oc2ccc(cc2Cl)[C@H]1O,Staphylococcus aureus,,ATCC 33591 MRSA,2×MIC,,biofilm inhibition,19%
CC(C)[C@@H]1NC(=O)[C@@H](CCCN)NC(=O)[C@H]([C@@H](C)O)NC(=O)[C@H](Cc2ccccc2)NC(=O)[C@@H](Cc2ccccc2)NC(=O)[C@H](Cc2ccccc2)NC(=O)[C@@H](CCCN)NC1=O,Acanthamoeba castellanii,,,trophozoites,,IC50,> 16 µg/mL
CCCOc1ccc(-c2noc(-c3ccc(CN)cc3)n2)cc1,Clostridioides difficile,spore germination,ATCC 43255,"45 µM, 1 h",,inhibition,12 to 33%
C[C@@H]1CC[C@H]2[C@@H](C)C(=O)O[C@@H]3O[C@@]4(C)CC[C@@H]1[C@]32OO4,Plasmodium falciparum,cell growth,D10,,,IC50,19 nM
COC(=O)N[C@H](C(=O)N1CCC[C@H]1c1ncc(-c2ccc(-c3ccc(-c4cnc([C@@H]5CCCN5C(=O)[C@@H](NC(=O)OC)C(C)C)[nH]4)cc3)cc2)[nH]1)C(C)C,hepatitis C virus,HCV replicon,,"50% effect level, with: IFN-α, ratio 1:2.5",,combination index,1.11 and 0.76 and 1
CNC(=O)c1cc(Cl)cc(C)c1NC(=O)c1cc(Br)nn1-c1ncccc1Cl,Spodoptera litura,leaf-dip,third instar larvae,"12.5 ppm, 48 h",,mortality,70%
Cc1scc2c1N(C(=O)CN1CCN(C)CC1)c1ccccc1NC2=O,Plasmodium falciparum,,HB3,,,IC50,3980 nM
CC(C)C[C@@H]1NC(=O)CNC(=O)[C@@H](Cc2ccccc2)NC(=O)[C@H](CCCCN)NC(=O)[C@@H](CCCN)NC(=O)[C@@H](C(C)C)NC1=O,Naegleria fowleri,,,trophozoites,,IC90,> 16 µg/mL
Cc1cc(Nc2ccc(C)c(Cl)c2)n2nc(C(F)(F)F)nc2n1,Plasmodium falciparum,"parasite growth, SYBR Green",3D7 wild type,72 h,,EC50,37.3 ± 4.4 nM
CC(C)[C@H]1NC(=O)[C@H](Cc2ccccc2)NC(=O)CNC(=O)[C@@H](Cc2ccccc2)NC(=O)[C@H](CCC(N)=O)NC(=O)[C@@H](CCCN)NC1=O,Acanthamoeba castellanii,,,trophozoites,,IC50,15.8 µg/mL
CN(C)CCCN1c2ccccc2CCc2ccccc21,Plasmodium falciparum,,D10,,,IC50,15800 nM
CC(C)[C@H]1NC(=O)[C@H](Cc2ccccc2)NC(=O)[C@@H](Cc2c[nH]c3ccccc23)NC(=O)[C@H](CCCNC(=N)N)NC(=O)[C@@H](CCCN)NC(=O)[C@H](CC(N)=O)NC1=O,Naegleria fowleri,,,trophozoites,,IC50,> 16 µg/mL
O=C(NC1CC1)c1ccc(N2CCOc3ccc(Cl)cc32)s1,Plasmodium falciparum,"parasite growth, SYBR Green",,72 h,baseline: 3D7-E182D over 3D7,EC50 ratio,5
CC[N+](CC)(CC)CCOc1ccc(/C=C/c2ccccc2)cc1,Plasmodium falciparum,,7G8,,,IC50,1260 nM
CCN(CC)CCO[C@H]1CC[C@@]2(C)C(=CC[C@@H]3[C@@H]2CC[C@]2(C)C(=O)CC[C@@H]32)C1,human rotavirus,"viral replication, focus reduction","MA104, Wa",pretreated 20 h before infection,,EC50,1440 nM
C[C@@H](O)[C@H]1C(=O)N2C(C(=O)O)=C(S[C@@H]3CN[C@H](C(=O)N(C)C)C3)[C@H](C)[C@H]12,Klebsiella pneumoniae,,"NDM-producing, neutropenic BALB/c mouse, thigh infection, thigh","dose not given, 8 h",,"bacterial burden, mean",8.2 log10 CFU/thigh
C#Cc1ccc(O)c(C=NNC(=O)c2cc(Br)cc(Br)c2O)c1,Cryptococcus neoformans,,H99,"unit not given, with: amphotericin B",lower = more synergy,FICI,4
CC(C)[C@@H]1NC(=O)[C@@H](CCCCN)NC(=O)[C@H]([C@@H](C)O)NC(=O)[C@@H](CCCCN)NC(=O)[C@H](Cc2c[nH]c3ccccc23)NC(=O)[C@@H](C)NC(=O)[C@@H](C(C)C)NC(=O)[C@@H](C)NC(=O)[C@H](Cc2c[nH]c3ccccc23)NC(=O)[C@@H](Cc2c[nH]c3ccccc23)NC1=O,Acanthamoeba castellanii,,,trophozoites,,IC90,> 16 µg/mL
O=C(NC(=O)c1c(F)cccc1F)Nc1ccc(Cl)cc1,Ostrinia furnacalis,,corn seedlings,"foliar spray, 100 mg/L, 7 days",,control efficacy,60%
CC(C)[C@@H]1NC(=O)[C@@H](C(C)C)NC(=O)[C@H](C)NC(=O)[C@H](CO)NC(=O)[C@H](Cc2c[nH]c3ccccc23)NC(=O)[C@@H](Cc2ccc(O)cc2)NC(=O)[C@H](CCCN)NC(=O)[C@H](Cc2c[nH]c3ccccc23)NC1=O,Acanthamoeba castellanii,,,trophozoites,,IC90,> 16 µg/mL
Cc1nc(Nc2ccc(C)c(Cl)c2)c2c(C)noc2n1,Plasmodium falciparum,"parasite growth, SYBR Green",3D7 wild type,72 h,,EC50,945 ± 170 nM
CNCCCN1c2ccccc2CCc2ccccc21,Plasmodium falciparum,,3D7,,,IC50,10000 nM
NCCC[C@@H]1NC(=O)[C@@H](CCCN)NC(=O)[C@H](Cc2ccccc2)NC(=O)[C@@H](Cc2ccccc2)NC(=O)[C@H](Cc2ccccc2)NC(=O)[C@@H](CCCN)NC1=O,Naegleria fowleri,,,trophozoites,,IC90,> 16 µg/mL
COc1ccc(NC(=O)CCNc2cc(C)nc(NCCc3ccc(F)cc3)n2)cc1.O=C(O)C(F)(F)F,Plasmodium falciparum,"parasite growth, SYBR Green",,72 h,baseline: 3D7-E182D over 3D7,EC50 ratio,1.4
Cn1c(=O)ccc2ccc(F)c(CCNC[C@H]3CN(c4cnc5c(n4)NC(=O)CO5)C(=O)O3)c21,Campylobacter spp.,,,,,MIC50,< 0.015 µg/mL
Cc1cnc(N2CC3(CCOCC3)C2)c(C(=O)Nc2ccc(C(=O)N3CCc4cc(C(=O)Nc5c(C)cccc5F)sc4-c4ccccc43)cc2)c1,human respiratory syncytial virus,"viral replication, CPE","HEp-2, A2 passaged with DMSO",,,IC90,1.51 nM
CCOc1cccc(=O)c2c(C)n(Cc3ccc(Cl)cc3)c(C)c12,Plasmodium falciparum,"parasite growth, SYBR Green",3D7 wild type,72 h,,EC50,1080 ± 580 nM
NCCCC[C@H]1NC(=O)[C@H](CO)NC(=O)[C@H](Cc2ccccc2)NC(=O)[C@@H](Cc2ccccc2)NC(=O)[C@H](Cc2c[nH]c3ccccc23)NC(=O)[C@@H](CCCN)NC(=O)[C@H](CCCN)NC1=O,Naegleria fowleri,,,trophozoites,,IC50,> 16 µg/mL
CC[C@H](C)[C@H](NC(=O)[C@H](C)NC(=O)[C@H](CCCCN)NC(=O)[C@H](CC(C)C)NC(=O)[C@H](C)NC(=O)[C@@H](NC(=O)[C@H](Cc1c[nH]cn1)NC(=O)[C@H](CC(C)C)NC(=O)[C@@H](NC(=O)[C@@H](NC(=O)[C@H](CCCCN)NC(=O)[C@H](C)NC(=O)[C@H](C)NC(=O)[C@H](CO)NC(=O)[C@H](CCCCN)NC(=O)[C@H](Cc1ccccc1)NC(=O)[C@@H](NC(=O)[C@H](CCCCN)NC(=O)[C@H](CC(C)C)NC(=O)[C@H](Cc1ccccc1)NC(=O)[C@H](CO)NC(=O)[C@H](CCCCN)NC(=O)[C@H](Cc1c[nH]c2ccccc12)NC(=O)[C@H](CCCCN)NC(C)=O)[C@@H](C)O)[C@@H](C)O)C(C)C)[C@@H](C)O)C(=O)N[C@@H](CO)C(=O)N[C@@H](CO)C(N)=O,Citrobacter,,,20 strains,,MBC90,> 64 µg/mL
Oc1ccc(-c2nc(-c3ccc(OC4CCCC4)cc3)no2)cc1,Clostridioides difficile,,ATCC 43255,"45 µM, 1 h, spores",,inhibition,14 to 39%
OC(CN1CCC(Cc2ccc(F)cc2)CC1)c1ccc(Cl)cc1 (stereo not drawn),Plasmodium falciparum,,HB3,,,IC50,1260 nM
COc1ccc(-n2ccnc2SCC(=O)Nc2cc(C)ccc2C)c(OC)c1,Plasmodium falciparum,"parasite growth, SYBR Green",,72 h,baseline: 3D7-E182D over 3D7,EC50 ratio,4.3

# Some of these lines once more:
Compound,organism,assay,system,setting,how to read,measurement,result
CC12CC1(C)C(=O)N(c1cc(Cl)cc(Cl)c1)C2=O (stereo not drawn),Botrytis cinerea,lesion diameter,"B05.10, cucumber seedlings","spray, 3 days, 20 °C",,EC95,18.4 µg/mL
CS(=O)(=O)CCCn1c(Cn2c(=O)n(CC(F)(F)F)c3ccncc32)cc2cc(Cl)ccc21,respiratory syncytial virus,RT-qPCR,"hospitalized infants 1-24 months, nasal swab","oral, 1-9 mg/kg daily, day 6, all doses combined",baseline: placebo,LS mean difference vs placebo,-0.25 log10 copies/mL
C#Cc1ccc(O)c(C=NNC(=O)c2ccc(Br)cc2)c1,Cryptococcus neoformans,,H99,"unit not given, with: fluconazole",lower = more synergy,FICI,0.7
Cc1ccc2[nH]c3c(c2c1)CCCC3NCCc1ccc(Br)cc1 (stereo not drawn),Streptococcus pneumoniae,,,"concentration not given, 10% fetal bovine serum",baseline: without serum,MIC fold change,4
CC(=O)NC[C@H]1CN(c2ccc(N3CCOCC3)c(F)c2)C(=O)O1,Streptococcus pneumoniae,,,,,MIC90,1 µg/mL
Cc1cc(Cl)cc(S(C)(=O)=O)c1NC(=O)c1cc(Br)nn1-c1ncccc1Cl,Spodoptera litura,leaf-dip,third instar larvae,"6.25 ppm, 24 h",,mortality,0%
